Published values gathered from unrelated publications.
A part holds a random share of what one study measured.

Series 1 — method: RNA Bind-n-Seq; molecule type: RNA; sample: in vitro; concentration: not given; relative to: input RNA pool; reading: higher = stronger binding
Target: RING finger protein unkempt homolog, zinc fingers 1-6, GST-SBP tag (UNK, Homo sapiens, UniProt Q9C0B0, residues 30-357)
Notes: RNA with constant flanks, human and mouse sites, ends assumed
Residues (chain): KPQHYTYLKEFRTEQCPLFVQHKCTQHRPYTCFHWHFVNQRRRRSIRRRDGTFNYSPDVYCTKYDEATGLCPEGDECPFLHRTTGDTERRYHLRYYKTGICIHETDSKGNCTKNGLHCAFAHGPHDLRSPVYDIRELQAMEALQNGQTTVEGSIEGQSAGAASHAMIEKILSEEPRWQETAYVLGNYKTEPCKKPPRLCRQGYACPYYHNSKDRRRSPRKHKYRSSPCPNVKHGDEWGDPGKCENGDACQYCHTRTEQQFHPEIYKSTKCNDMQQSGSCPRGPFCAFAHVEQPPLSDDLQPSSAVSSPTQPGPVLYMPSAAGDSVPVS
| Strand | bound/input enrichment |
| --- | --- |
| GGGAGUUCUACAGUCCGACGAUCCCUACAACCAUCAUGAAUGCAGAUAUUCUAGCAUAUUGUCAGAAGGAAGGAUGGUGCAAAUUAGCUUUUUAUCUUCUAGCAUUUUUUUACUACCUAUAUGGCAUGAUCUAUGUUUUGGUGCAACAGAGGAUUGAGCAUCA | 14 ratio |
| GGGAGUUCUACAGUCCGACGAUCUCGUUUGGACGUGUCAGAGAGUCGUUGCCCGUCAGGUACCACCUGCAGAAUAAGACCGACUUGGUUCAAGAUGUGGAGAUUUCUGUGGAGCCCAGUGACGCCUUCAUGUUCUCAGGCCUCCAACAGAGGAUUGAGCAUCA | 0.0492 ratio |
| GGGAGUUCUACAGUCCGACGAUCUCUUGGGCAGAAGAGACAAACUCAAUGUUAAAAUCUCUAGGAGUGACCACGAAGUUUCAUAGUUUUCCAAAUGUUUACCAUGAGCUAAGCAAAACUGAGUUAGACAUAUUGAAGUUAUGGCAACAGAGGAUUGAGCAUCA | 0.291 ratio |
| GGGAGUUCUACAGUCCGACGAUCUGAUCUUCUGCUCUUCCCACUUCCUCCCCUUUCUACUGCUCUCCCAUUUUCCCUUGCUGGGAGUAGCCACAUGCUCUUGCCCCCCAACCCUUGUAUAUGGGGACAGUGGGGUCAGUGCAGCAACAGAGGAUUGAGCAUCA | 0.245 ratio |
| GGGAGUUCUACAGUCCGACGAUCUUGCCAAAUUACACCACAGAGGUAUGUUGAUUAAGCACGCUGGUCUUUCCCCUCCCAAGUUAACAUGGGCAAGUCCUGCUCAGGGUGGAGGCAGAAACGGGUGAGACUGUACCCUGCCUGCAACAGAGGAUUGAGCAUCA | 0.0685 ratio |
| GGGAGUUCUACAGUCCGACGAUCGGGCUCCGGACAGUGACAUCCUCAAGUCACCGAGCUCGGGAAGACAGCUGGCUAAAGUCCUUGUUUGUCAGAAAGGUCGAUCCAAGGAAAGAUGCCCACUCCAACCUCCUAGCCAAAAAGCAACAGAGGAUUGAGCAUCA | 0.0864 ratio |

Series 2 — method: universal PBM; molecule type: double-stranded DNA, one strand shown; sample: in vitro; concentration: not given; reading: higher = stronger binding
Target: Sal-like protein 4, full length isoform B (SALL4, Homo sapiens, UniProt Q9UJQ4-2, residues 1-616)
Notes: 8-mer, flanks averaged, mean of replicates
Construct (chain): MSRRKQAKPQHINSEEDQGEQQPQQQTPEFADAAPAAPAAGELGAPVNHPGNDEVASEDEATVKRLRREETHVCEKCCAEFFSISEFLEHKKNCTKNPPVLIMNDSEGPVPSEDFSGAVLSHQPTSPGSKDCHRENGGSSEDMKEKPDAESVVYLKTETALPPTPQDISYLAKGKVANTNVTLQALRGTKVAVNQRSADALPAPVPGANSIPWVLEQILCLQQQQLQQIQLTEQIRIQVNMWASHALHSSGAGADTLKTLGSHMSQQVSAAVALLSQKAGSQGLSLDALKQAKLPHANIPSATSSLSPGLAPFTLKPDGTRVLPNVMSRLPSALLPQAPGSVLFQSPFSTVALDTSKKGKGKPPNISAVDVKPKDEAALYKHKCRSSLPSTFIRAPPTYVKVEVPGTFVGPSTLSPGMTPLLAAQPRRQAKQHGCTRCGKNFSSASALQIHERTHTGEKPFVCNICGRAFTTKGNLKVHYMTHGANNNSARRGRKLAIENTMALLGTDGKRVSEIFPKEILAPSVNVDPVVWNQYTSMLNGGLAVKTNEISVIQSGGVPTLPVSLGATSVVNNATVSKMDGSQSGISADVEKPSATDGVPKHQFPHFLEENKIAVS
| Strand | E-score |
| --- | --- |
| AAGCGCTA | 0.0352 |
| ACGGGGAG | -0.395 |
| CAGAGATC | -0.189 |
| AGTGGTCG | -0.171 |
| CGTGGAGC | -0.18 |
| GAGGGCAC | -0.191 |
| AAGGCGCT | -0.14 |
| GCAGCGCC | -0.314 |
| AGTAAGTA | 0.259 |
| CCCACTAC | -0.0557 |

Series 3 — method: RNA Bind-n-Seq; molecule type: RNA; sample: in vitro; concentration: 1 µM; notes: whole 134-nt RNA, ends assumed; together with: 150 mM KCl; relative to: input library; reading: higher = stronger binding
Target: Ras GTPase-activating protein-binding protein 1, C-terminal RGG region (G3BP1, Homo sapiens, UniProt Q13283)
UniProt Q13283, sequence (whole entry, looked up): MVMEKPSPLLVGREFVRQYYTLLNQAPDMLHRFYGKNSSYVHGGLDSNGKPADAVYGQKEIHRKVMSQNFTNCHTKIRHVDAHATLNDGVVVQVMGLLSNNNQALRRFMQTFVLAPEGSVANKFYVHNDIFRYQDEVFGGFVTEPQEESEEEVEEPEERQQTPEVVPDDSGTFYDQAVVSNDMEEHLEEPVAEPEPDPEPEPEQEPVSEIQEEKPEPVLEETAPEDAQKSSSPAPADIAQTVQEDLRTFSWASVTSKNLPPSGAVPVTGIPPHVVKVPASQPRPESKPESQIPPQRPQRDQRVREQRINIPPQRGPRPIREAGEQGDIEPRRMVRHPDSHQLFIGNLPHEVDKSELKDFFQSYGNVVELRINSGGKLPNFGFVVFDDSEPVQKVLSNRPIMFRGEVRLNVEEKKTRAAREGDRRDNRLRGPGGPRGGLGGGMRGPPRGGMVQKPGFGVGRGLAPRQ
| Strand | log2 enrichment |
| --- | --- |
| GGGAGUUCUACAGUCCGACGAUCCACAGACAACACGCACCCACACAGACACAGAGGGAAGGGGUUGGGAUGGGGACAGGGUGCACAGCAGGGCGGGGUAGGACCCCAGACCCUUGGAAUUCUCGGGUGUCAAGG | -1.4 |
| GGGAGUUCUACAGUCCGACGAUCGUCCUGUGCUACACAUCGUAUGUACCGAAUCGGAAAAAAAGGAAAAAGGAAAAAAAGGAAAGUAUUAUGUUACGCCGUUCGGAUCUGCACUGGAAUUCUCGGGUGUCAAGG | -1.51 |
| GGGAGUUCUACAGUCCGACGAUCUGGGAGGUGGAUUUUGUUUAUUUUUUUAGCUCUUUUCCAGGGGUGGGAAUUUUUUUUUAAUAUGUGUCAUGAAUAAAGUUGUUUUUGAAAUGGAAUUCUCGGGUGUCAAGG | 2.84 |
| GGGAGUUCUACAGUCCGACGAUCUCCUGUGCUACACAUCGUAUGUACCGAAUCGGAAAAAAGGAAAAAAGGGAAAAAAGGGGAAAGUAUUAUGUUACGCCGUUCGGAUCUGCAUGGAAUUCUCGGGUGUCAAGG | -1.73 |
| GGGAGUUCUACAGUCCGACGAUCUAACUUUAGAGGAGGAUCUGAUGGAUAUGGCAGUGGACGUGGAUGUGGGGAUGGCUAUAAUGGGUAUGGAGGAGGACCUGGAGGUGGCAAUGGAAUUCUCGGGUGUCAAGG | -1.31 |
| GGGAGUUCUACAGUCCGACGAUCCCUGUGCUACACAUCGUAUGUACCGAAUCGGGGCCCCCCGGGCCCCCCGGGGCCCCCCGGAAAGUAUUAUGUUACGCCGUUCGGAUCUGCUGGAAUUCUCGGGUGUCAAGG | -1.97 |
| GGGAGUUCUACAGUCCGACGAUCCACAGACAACACGCACCCACACAGACACAGAGGGAAGGGGUUGGGAUGGGGAGAGGGUGCACAGCAGGGCGGGGUAGGACCCCAGCCCCUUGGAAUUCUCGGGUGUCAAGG | 0.227 |

Series 4 — target: UBE2Z UBC core domain (UniProt Q9H832); method: yeast two-hybrid; sample: yeast; notes: mostly zero background; relative to: not given; reading: higher = stronger interaction
B1: PHF7 RING domain (UniProt Q9BWX1); chain IQHGHVGEESCILCCEDLSQQSVENIQSPCCSQAIYHRKCIQKYAHTSAKHFFKCPQCNNRKEFPQEML
B2: MSL2 RING domain (UniProt Q9HCI7); chain LLPYFRQSLSCCVCGHLLQDPIAPTNSTCQHYVCKTCKGKKMMMKPSCSWCKDYEQFEENKQ
B3: TRIM10 RING domain (UniProt Q9UDY6); chain SVTSLADEVNCPICQGTLREPVTIDCGHNFCRACLTRYCEIPGPDLEESPTCPLCKEPFRPGSFRP
B4: TRIM15 RING domain (UniProt Q9C019); chain SLKVVHELPACTLCAGPLEDAVTIPCGHTFCRLCLPALSQMGAQSSGKILLCPLCQEEEQAETPMA
Target sequence (chain): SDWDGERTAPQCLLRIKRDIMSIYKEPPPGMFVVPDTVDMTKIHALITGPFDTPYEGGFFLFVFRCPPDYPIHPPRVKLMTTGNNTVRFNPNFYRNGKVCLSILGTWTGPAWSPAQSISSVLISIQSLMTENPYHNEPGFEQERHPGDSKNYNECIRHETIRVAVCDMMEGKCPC
| Sequence | lacZ reporter activity |
| --- | --- |
| B1 (PHF7 RING domain) | 0 |
| SYEDKSNDFVCPICFDMIEEAYMTKCGHSFCYKCIHQSLEDNNRCPKCNYVVDNIDHLY (COP1 RING domain (UniProt Q8NHY2)) | 0 |
| B2 (MSL2 RING domain) | 0 |
| B3 (TRIM10 RING domain) | 0 |
| MANWVFCNRCFQPPHRTSCFSLTNCGHVYCDACLGKGKKNECLICKAPCRTVLLSK (RNF212 RING domain (UniProt Q495C1)) | 0 |
| B4 (TRIM15 RING domain) | 0 |
| KIKDLNEHIVCCLCAGYFVDATTITECLHTFCKSCIVKYLQTSKYCPMCNIKIHETQPLL (PCGF1 RING domain (UniProt Q9BSM1)) | 0 |

Series 5 — method: protein binding microarray; molecule type: double-stranded DNA, one strand shown; sample: in vitro; concentration: not given; relative to: not given; reading: higher = stronger binding
Target: Histone acetyltransferase KAT6A, winged helix 2, GST fusion (KAT6A, Homo sapiens, UniProt Q92794, residues 85-181)
Notes: 8-mer, flanks averaged, mean of 2 arrays, mostly near background
Residues (chain): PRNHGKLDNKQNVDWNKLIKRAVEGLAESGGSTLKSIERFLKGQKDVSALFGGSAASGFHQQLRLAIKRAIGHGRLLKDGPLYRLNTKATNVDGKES
| Strand | E-score |
| --- | --- |
| ATCGGCAC | 0.125 |
| GATGCAGA | 0.0633 |
| GTAAACCA | -0.145 |
| CATCATAC | 0.143 |
| CCTCCTAG | -0.0493 |
| AGAGAGTG | -0.154 |
| CCACCACA | -0.139 |
| GCTGGCGA | -0.00041 |
| GACCCGCA | 0.0478 |
| GACGTTGA | -0.121 |
| CATTGCGC | -0.00499 |
| AAACACTG | -0.0164 |
| AGCTACTC | -0.0923 |
| AGCGGGAC | 0.265 |
| CATAGAGG | 0.0292 |
| AATCTGGT | 0.0783 |
| AATTAATG | 0.0748 |
| CAGATCCC | -0.0509 |
| GAGTGTGC | 0.0523 |
| GTGGATTA | -0.0983 |
| CAGTCCCA | -0.0695 |
| AAAATGGG | -0.12 |
| ATAGACAC | -0.0106 |
| CGACCCAC | 0.137 |
| AAGCTCCA | 0.0887 |

A few entries again (series 5):
| Strand | E-score |
| --- | --- |
| AAAATGGG | -0.12 |
| ATAGACAC | -0.0106 |
| GAGTGTGC | 0.0523 |
| AAACACTG | -0.0164 |
| CGACCCAC | 0.137 |
